Measurements gathered from unrelated publications.
Each line is one published result; not all experiments were run side by side. Several values in a cell are separate wells, animals, samples, runs or records.
Target: Tyrosine-protein kinase FRK (FRK, Homo sapiens, UniProt P42685)

SMILES	test	system	conditions	scale	quantity	value
CCN1CCN(Cc2ccc(C(=O)Nc3ccc(C)c(NCc4cnc5[nH]ccc5c4OC)c3)cc2C(F)(F)F)CC1	binding, competition with immobilised ligand		1 µM		remaining binding	2.2%
N[C@H]1CC[C@H](Nc2nccc(-c3cccnc3Oc3ccc(NC(=O)NC4CC4)c4ccccc34)n2)CC1	kinobead competition pulldown	HEK293/HCT116 lysate mixture	10 µM, 1 h, 4 °C	lower = stronger competition	log2 LFQ intensity	22.9 and 23.1 and 23
C=CC(=O)Nc1cccc(-c2cnc3[nH]cc(C(=O)NC(C)(C)C)c3n2)c1	kinase activity		0.1 µM		inhibition	10% and 9%
C=CC(=O)Nc1cc(-c2nn(C3CCN(CCNC(=O)[C@H](C)CCC45CC6CC(CC(C6)C4)C5)CC3)c3ncnc(N)c23)ccc1Oc1ccccc1	inhibitor, KiNativ profiling	biochemical	2 µM		inhibition	38.6%
Nc1ncc(-c2cc(-c3cnn(CC(F)(F)F)c3)ncc2F)nc1C(=O)NC1CNCC(F)C1 (stereo not shown)	enzyme activity		1 µM	baseline: DMSO control	remaining activity	97%
COc1c(Cl)cccc1Nc1c(-c2ccncc2C#C[C@@]2(C)CCCN2C(=O)/C=C/CN(C)C)[nH]c2c1C(=O)NCC2	cell-free assay, competition with immobilised ligand		3 µM		remaining binding	91%
CNC(=O)C1CCN(c2cc(C)c(F)cc2NC(=O)c2ccc(-c3cc(O)ccc3C)c(C)c2)CC1	binding, competition with immobilised ligand		1 µM		remaining binding	5.9%
COc1cc(Nc2nccc(-c3cnn4nc(OC)ccc34)n2)cc(C(F)(F)F)c1	binding, competition with immobilised ligand		1 µM		remaining binding	95%
CN1CCN(Cc2ccc(-c3ccc(CO[C@H]4CCC[C@@H]4NC(=O)c4cc(-c5cnn(C)c5)cnc4N)cc3)cc2)CC1	enzyme activity, inhibitor		0.1 µM		inhibition	8%
NC(=O)[C@@H](O)C[C@H]1CCc2sc3ncnc(O[C@H]4CC[C@H](N5CCOCC5)CC4)c3c21	enzyme activity, inhibitor, radiometric		10 µM		inhibition	56%
Cc1ccc(-c2c(/C=C(\C#N)C(=O)NC(C)C)n(CCCO)c3ncnc(N)c23)cc1	cell-free assay, competition with immobilised ligand		1 µM		remaining binding	58%
CCn1cc(C(=O)O)c(=O)c2c(N)c(F)c(NC3CCCCC3)cc21	kinase activity		0.1 µM, together with: ATP at Km		inhibition	2%
CNC1C[S+]2CC[S+]3CC[S+](C1)[Ru-4]321([N]=C=S)[n]2c3ccc(OC)cc3c3c4c(c5cc(F)c[n+]1c5c32)C(=O)NC4=O (stereo not shown)	KinomeScan		0.1 µM	baseline: untreated	remaining binding	100%
C=CC(=O)N1Cc2nc(-c3cc(-c4cc(Cl)cnc4Cl)c(F)cc3F)n(-c3ccncn3)c2C1	cell-free assay, inhibitor		1 µM		inhibition	-0.4%
CCN1CCN(Cc2ccc(NC(=O)c3ccc(C)c(NC(=O)c4cncc(-c5cccs5)c4)c3)cc2C(F)(F)F)CC1	binding, competition with immobilised ligand		1 µM		remaining binding	1.3%
Cc1cccc(O[C@H]2CCC[C@@H](C(C)CNCc3ccncc3)C2)c1 (relative stereo)	cell-free assay, inhibitor		1 µM		inhibition	1%

Excerpt of the above:
SMILES	test	system	conditions	scale	quantity	value
C=CC(=O)Nc1cccc(-c2cnc3[nH]cc(C(=O)NC(C)(C)C)c3n2)c1	kinase activity		0.1 µM		inhibition	10% and 9%
